Experimental data pooled from the literature.
Each numbered part is a random draw from the data of one study; scales do not carry over between parts. Positions count from the first letter of the parent shown.

Series 1
Target: Ras GTPase-activating protein-binding protein 1, full length (G3BP1, Homo sapiens, UniProt Q13283)
Chain of UniProt Q13283 (whole entry, looked up): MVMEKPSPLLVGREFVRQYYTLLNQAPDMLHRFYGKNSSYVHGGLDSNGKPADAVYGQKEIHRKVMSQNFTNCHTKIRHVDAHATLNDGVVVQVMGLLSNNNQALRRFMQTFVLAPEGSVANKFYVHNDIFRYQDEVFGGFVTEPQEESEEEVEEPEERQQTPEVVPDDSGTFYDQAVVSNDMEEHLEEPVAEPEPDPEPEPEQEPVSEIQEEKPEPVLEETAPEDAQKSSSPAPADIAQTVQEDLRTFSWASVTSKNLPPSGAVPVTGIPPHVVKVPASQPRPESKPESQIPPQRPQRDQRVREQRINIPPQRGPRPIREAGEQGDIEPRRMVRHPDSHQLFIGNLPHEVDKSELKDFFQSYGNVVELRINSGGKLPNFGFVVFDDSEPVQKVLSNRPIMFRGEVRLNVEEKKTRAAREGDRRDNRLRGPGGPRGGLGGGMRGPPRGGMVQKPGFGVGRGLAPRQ
Technique: RNA Bind-n-Seq
Molecule type: RNA
Matrix: in vitro
Concentration: 200 nM
Setting: whole 134-nt RNA, ends assumed
With: 150 mM LiCl
Reference: input library
Direction: higher = stronger binding
Each molecule: 7-deaza-guanosine replaces G
Shared flanks, not repeated: GGGAGUUCUACAGUCCGACGAUC … UGGAAUUCUCGGGUGUCAAGG
| Oligonucleotide | log2 enrichment |
| --- | --- |
| UGGGAGGUGGAUUUUGUUUAUUUUUUUAGCUCAUUUCCAGGGGUGGGAAUUUUUUUUUAAUAUGUGUCAUGAAUAAAGUUGUUUGUGAAA | -0.25 |
| CACAGACAACACGCACCCACACAGACACAGAGGGAAAGGGUUGGGAUGGGGACAGGGUGCACAGCAGGGCGGGGUAGGACCCCAGCCCCU | -1.11 |
| UGAGUAGAUCUAGAAAUGACAGUAUGACUUUGUUUCUAACAGCUCCAAAAUGGAUCAAAAUGUUUGUUUUGGAUGAAGCAGAUGAAAUGU | -3.62 |
| CCUGUGCUACACAUCGUAUGUACCGAAUCGGGGUUUUUUGGGGUUUUUUGGGUUUUUUGGGAAAGUAUUAUGUUACGCCGUUCGGAUCUG | 0.682 |
| UCCUGUGCUACACAUCGUAUGUACCGAAUCGGCCCCCCGGGGCCCCCCGGGCCCCCCGGAAAGUAUUAUGUUACGCCGUUCGGAUCUGCA | -1.77 |
| UCAAGUCCUGUGCUACACAUCGUAUGUACCGAAUCGGUUUGGUUUUUUUGGAGGAAAGUAUUAUGUUACGCCGUUCGGAUCUGCACUUCC | 0.482 |
| AGUCCUGUGCUACACAUCGUAUGUACCGAAUCGGGCCCCCGGCCCCCGGCCCCCGGGGAAAGUAUUAUGUUACGCCGUUCGGAUCUGCAC | 0.327 |
| CACAGACAACACGCACCCACACAGACACAGAGGGAAGGGGUUGGGAUGGGGACAGGGUGCACAGCAGGGCGGGGUAGGACCUCAGCCCCU | 0.0962 |

Series 2
Target: CCNE2, cyclin fold, Cln2 fusion (human)
Technique: yeast growth competition, sequencing
Matrix: yeast
Setting: weak parent motif
Reference: not given
Direction: higher = stronger binding
Starting sequence: PKN2 docking peptide (human); VSAVQKLDFSDTM; partner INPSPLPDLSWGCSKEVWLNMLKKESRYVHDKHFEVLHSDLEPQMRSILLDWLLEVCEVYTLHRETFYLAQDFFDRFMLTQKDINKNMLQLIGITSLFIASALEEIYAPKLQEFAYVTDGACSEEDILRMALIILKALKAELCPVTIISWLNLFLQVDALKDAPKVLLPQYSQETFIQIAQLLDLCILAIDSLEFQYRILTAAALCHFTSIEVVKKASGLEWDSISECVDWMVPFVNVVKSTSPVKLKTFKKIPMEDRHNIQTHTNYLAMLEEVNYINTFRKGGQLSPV
| Variant | normalised enrichment score |
| --- | --- |
| VSAVQKLDPSDTM [F9P] | -0.474 |
| VSLVQKLDFSDTM [A3L] | 0.702 |
| VSAHQKLDFSDTM [V4H] | -0.262 |
| VSAVQKLVFSDTM [D8V] | 0.506 |
| VSAVQKLDFKDTM [S10K] | 0.356 |
| VSAVQKYDFSDTM [L7Y] | -0.316 |
| VSAVQKLDFSCTM [D11C] | 0.554 |
| VSMVQKLDFSDTM [A3M] | 0.177 |
| VSAVQKLDFSDTC [M13C] | -0.139 |
| VSAEQKLDFSDTM [V4E] | 0.0103 |
| VSWVQKLDFSDTM [A3W] | 0.55 |
| VSAVQKLDFSDCM [T12C] | 0.821 |
| VSAVQKLDFDDTM [S10D] | -0.1 |
| VSAVQPLDFSDTM [K6P] | -0.453 |
| VSAVQKLDQSDTM [F9Q] | 0.00845 |
| DSAVQKLDFSDTM [V1D] | -0.418 |
| WSAVQKLDFSDTM [V1W] | 0.0794 |
| ASAVQKLDFSDTM [V1A] | 0.111 |
| VSAVQKLDFEDTM [S10E] | 0.964 |
| VSAVQKLIFSDTM [D8I] | 0.924 |
| VSAVQKLDFSQTM [D11Q] | -0.247 |
| VSAVQTLDFSDTM [K6T] | 0.208 |
| VSAVQKMDFSDTM [L7M] | -0.201 |
| VSARQKLDFSDTM [V4R] | 0.00743 |

Series 3
Target: ABI1, truncated, D143A, DHFR fusion (Arabidopsis thaliana, UniProt P49597)
Technique: DHFR PCA, dose-response
Matrix: yeast
Setting: Hill fit, mean, not affinity
With: (+)-ABA, dose series
Direction: lower = more sensitive
Starting sequence: PYL1, truncated, DHFR fusion (Arabidopsis thaliana, UniProt Q8VZS8); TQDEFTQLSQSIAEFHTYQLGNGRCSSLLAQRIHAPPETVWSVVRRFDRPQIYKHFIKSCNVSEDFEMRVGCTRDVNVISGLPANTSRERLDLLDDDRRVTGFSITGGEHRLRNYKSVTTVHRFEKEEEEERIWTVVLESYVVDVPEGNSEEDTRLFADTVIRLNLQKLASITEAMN
| Variant | ABA EC50 [µM] |
| --- | --- |
| Y18C | 16.8 |
| Y115F | 7.62 |
| S80E | 130 |
| I172F | 7.43 |
| R46N | 15.9 |
| L29V | 2.4 |
| Q7S | 1.81 |
| F15S | 69.7 |
| T17H | 7.2 |
| E125Y | 1.32 |
| G81H | 376 |
| E128C | 2.05 |
| S80P | 168 |
| V40I | 23.1 |
| Q167S | 0.979 |
| S150Q | 32.4 |

Series 4
Target: UBE2L6 UBC core domain (UniProt O14933)
Chain of UniProt O14933 (whole entry, looked up): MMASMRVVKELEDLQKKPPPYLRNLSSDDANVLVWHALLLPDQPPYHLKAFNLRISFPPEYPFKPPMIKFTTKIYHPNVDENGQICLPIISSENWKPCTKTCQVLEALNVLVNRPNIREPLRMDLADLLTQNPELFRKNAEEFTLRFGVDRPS
Technique: yeast two-hybrid
Matrix: yeast
Setting: mostly zero background
Reference: not given
Direction: higher = stronger interaction
B1: ZMIZ2 RING domain (UniProt Q8NF64); chain GTIPGTPGPNGEDGVEQTAIKVSLKCPITFRRIQLPARGHDCRHIQCFDLESYLQLNCERGTWRCPVCNKTALLEGLEVDQYMLGILIYIQNSDYEEITIDPTCSWK
B2: MAP3K1 RING domain (UniProt Q13233); chain NSIKDEEEQMCPICLLGMLDEESLTVCEDGCRNKLHHHCMSIWAEECRRNREPLICPLCRSKWRSHDFYS
B3: MDM4 RING domain (UniProt O15151); chain MEDCQNLLKPCSLCEKRPRDGNIIHGRTGHLVTCFHCARRLKKAGASCPICKKEIQLVIKVF
B4: RFWD3 RING domain (UniProt Q6PCD5); chain ASMDEEEGDTCTICLEQWTNAGDHRLSALRCGHLFGYRCISTWLKGQVRKCPQCNKKARHSDIVV
B5: DZIP3 RING domain (UniProt Q86Y13); chain PDEEEEEEEPCVICHENLSPENLSVLPCAHKFHAQCIRPWLMQQGTCPTCRLHVLLPEEFP
B6: TRIM62 RING domain (UniProt Q9BVG3); chain MACSLKDELLCSICLSIYQDPVSLGCEHYFCRRCITEHWVRQEAQGARDCPECRRTFAEPALAP
| Sequence | lacZ reporter activity |
| --- | --- |
| PEDRESLKSACVVCLSSFKSCVFLECGHVCSCTECYRALPEPKKCPICRQAITRVIPLY (MUL1 RING domain (UniProt Q969V5)) | 14700 |
| AMYLQENGIDCPKCKFSYALARGGCMHFHCTQCRHQFCSGCYNAFYAKNKC (RNF31 RING domain (UniProt Q96EP0)) | 0 |
| B1 (ZMIZ2 RING domain) | 0 |
| B2 (MAP3K1 RING domain) | 16800 |
| FDGDVDPDLKCALCHKVLEDPLTTPCGHVFCAGCVLPWVVQEGSCPARCRGRLSAKELN (PDZRN3 RING domain (UniProt Q9UPQ7)) | 0 |
| B3 (MDM4 RING domain) | 0 |
| KETIKKTTKPCPRCHVPVEKNGGCMHMKCPQPQCRLEWCWNCGCEWNRVCMG (PRKN RING domain (UniProt O60260)) | 0 |
| NLSELTPYILCSICKGYLIDATTITECLHTFCKSCIVRHFYYSNRCPKCNIVVHQTQPLY (PCGF6 RING domain (UniProt Q9BYE7)) | 0 |
| B4 (RFWD3 RING domain) | 0 |
| KLRKLKEAMLCMVCCEEEINSTFCPCGHTVCCESCAAQLQSCPVCRSRVEHVQHVY (MYLIP RING domain (UniProt Q8WY64)) | 0 |
| B5 (DZIP3 RING domain) | 0 |
| GSDDEEIPFKCFICRQSFQNPVVTKCRHYFCESCALQHFRTTPRCYVCDQQTNGVFNPA (RNF113A RING domain (UniProt O15541)) | 0 |
| B6 (TRIM62 RING domain) | 0 |
